# Earlier results, collected from citations in different studies.
# Protein sequences, listed by entry. Tags and fused reporters are not part of them. Residues count along the entry.
# UniProt P32300, whole entry: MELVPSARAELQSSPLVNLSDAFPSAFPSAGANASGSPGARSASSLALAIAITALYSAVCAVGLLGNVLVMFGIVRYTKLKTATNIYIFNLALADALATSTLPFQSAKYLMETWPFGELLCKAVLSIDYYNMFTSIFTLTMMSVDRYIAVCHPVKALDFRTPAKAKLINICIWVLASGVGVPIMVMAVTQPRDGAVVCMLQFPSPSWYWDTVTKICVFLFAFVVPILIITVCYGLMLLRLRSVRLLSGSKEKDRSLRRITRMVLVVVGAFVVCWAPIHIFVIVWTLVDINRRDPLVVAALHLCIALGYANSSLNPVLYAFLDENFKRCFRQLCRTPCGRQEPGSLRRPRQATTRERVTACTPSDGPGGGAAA
# UniProt P25084, whole entry: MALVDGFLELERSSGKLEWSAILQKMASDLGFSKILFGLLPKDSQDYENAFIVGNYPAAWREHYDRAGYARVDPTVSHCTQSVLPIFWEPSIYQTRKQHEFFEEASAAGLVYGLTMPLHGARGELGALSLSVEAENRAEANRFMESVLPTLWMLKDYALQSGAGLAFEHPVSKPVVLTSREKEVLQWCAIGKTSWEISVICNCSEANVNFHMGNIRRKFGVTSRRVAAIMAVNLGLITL
# UniProt P33533, whole entry: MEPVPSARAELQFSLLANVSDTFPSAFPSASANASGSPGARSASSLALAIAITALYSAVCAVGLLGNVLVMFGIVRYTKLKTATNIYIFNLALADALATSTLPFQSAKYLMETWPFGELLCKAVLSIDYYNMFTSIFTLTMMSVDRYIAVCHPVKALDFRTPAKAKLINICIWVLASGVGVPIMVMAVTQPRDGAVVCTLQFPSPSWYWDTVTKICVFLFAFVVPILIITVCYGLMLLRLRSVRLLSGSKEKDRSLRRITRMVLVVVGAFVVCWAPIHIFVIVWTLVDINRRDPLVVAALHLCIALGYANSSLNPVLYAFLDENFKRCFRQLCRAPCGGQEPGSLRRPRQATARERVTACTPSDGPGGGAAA
# UniProt P31645, whole entry: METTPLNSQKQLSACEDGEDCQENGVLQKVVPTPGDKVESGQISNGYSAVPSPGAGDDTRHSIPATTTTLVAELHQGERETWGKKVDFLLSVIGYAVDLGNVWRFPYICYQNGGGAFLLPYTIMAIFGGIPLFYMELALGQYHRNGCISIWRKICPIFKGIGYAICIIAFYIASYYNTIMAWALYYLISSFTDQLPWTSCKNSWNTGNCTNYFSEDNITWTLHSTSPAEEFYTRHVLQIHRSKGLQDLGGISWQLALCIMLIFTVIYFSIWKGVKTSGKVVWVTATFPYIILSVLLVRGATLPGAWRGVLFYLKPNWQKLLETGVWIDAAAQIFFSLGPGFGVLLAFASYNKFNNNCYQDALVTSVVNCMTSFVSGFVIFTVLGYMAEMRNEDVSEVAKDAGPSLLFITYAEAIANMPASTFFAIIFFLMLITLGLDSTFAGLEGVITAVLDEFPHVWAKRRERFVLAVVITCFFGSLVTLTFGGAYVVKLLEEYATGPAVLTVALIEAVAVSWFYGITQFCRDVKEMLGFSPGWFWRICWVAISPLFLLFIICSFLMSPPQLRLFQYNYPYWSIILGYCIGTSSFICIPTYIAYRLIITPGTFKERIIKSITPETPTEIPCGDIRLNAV
# UniProt P62942, 2-108 limits assumed: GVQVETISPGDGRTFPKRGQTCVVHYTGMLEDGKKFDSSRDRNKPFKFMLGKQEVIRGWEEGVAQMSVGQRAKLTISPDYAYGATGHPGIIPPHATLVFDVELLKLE
# UniProt Q99808, 2-456 limits assumed: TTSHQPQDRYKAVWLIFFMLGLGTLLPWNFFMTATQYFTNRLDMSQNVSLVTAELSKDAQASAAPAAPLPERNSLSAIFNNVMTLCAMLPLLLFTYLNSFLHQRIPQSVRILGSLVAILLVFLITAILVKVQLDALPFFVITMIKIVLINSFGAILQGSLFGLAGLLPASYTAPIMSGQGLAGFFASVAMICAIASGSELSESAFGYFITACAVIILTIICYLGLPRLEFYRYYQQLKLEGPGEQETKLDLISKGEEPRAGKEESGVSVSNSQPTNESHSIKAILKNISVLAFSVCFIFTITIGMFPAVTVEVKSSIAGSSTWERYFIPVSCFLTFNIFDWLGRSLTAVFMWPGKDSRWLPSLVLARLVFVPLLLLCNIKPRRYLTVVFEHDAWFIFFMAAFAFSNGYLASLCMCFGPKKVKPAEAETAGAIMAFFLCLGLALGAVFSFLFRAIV
# UniProt O33590, 1-425: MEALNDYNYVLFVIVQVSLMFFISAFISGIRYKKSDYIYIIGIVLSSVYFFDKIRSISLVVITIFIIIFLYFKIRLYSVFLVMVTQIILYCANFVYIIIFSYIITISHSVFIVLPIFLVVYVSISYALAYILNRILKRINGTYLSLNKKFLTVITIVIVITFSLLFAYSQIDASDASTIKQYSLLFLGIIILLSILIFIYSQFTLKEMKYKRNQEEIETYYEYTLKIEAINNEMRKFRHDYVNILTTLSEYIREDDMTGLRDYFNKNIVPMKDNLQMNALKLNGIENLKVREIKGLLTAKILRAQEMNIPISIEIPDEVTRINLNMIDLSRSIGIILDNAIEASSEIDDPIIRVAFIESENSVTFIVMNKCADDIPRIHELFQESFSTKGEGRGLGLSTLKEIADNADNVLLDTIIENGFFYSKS
# UniProt P35372, whole entry: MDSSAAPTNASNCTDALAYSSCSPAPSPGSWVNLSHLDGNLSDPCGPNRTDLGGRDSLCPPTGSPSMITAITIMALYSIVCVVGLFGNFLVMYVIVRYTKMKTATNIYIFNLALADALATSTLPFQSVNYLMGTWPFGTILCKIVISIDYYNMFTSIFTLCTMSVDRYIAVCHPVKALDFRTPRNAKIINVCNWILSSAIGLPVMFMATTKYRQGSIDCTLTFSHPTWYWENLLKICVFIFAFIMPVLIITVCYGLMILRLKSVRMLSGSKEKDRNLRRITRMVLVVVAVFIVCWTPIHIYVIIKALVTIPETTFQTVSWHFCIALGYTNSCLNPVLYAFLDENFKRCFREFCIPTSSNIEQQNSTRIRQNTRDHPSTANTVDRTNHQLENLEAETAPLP
# UniProt Q8VSX5, 1-224: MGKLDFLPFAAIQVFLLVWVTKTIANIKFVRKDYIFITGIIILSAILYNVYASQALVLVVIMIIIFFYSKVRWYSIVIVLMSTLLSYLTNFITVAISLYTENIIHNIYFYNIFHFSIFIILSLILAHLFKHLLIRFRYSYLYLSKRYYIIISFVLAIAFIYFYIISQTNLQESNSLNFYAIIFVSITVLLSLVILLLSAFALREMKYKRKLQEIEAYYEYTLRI
# UniProt A0A0H2V7F6, 25-182 limits assumed: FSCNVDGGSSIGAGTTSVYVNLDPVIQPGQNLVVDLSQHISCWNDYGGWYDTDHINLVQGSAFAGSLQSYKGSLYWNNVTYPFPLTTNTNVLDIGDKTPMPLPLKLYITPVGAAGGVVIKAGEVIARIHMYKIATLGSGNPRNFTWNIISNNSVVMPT
# UniProt P42866, whole entry: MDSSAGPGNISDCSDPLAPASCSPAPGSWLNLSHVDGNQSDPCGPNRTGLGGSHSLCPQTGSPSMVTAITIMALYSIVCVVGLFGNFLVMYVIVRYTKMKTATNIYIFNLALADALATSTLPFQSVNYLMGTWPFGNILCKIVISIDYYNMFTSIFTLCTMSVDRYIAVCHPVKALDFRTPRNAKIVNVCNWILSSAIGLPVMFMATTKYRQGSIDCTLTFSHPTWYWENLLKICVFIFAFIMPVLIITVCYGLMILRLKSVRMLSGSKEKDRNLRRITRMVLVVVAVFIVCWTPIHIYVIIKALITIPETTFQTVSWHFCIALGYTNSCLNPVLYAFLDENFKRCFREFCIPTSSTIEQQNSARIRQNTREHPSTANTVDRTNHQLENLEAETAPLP
# UniProt P33535, whole entry: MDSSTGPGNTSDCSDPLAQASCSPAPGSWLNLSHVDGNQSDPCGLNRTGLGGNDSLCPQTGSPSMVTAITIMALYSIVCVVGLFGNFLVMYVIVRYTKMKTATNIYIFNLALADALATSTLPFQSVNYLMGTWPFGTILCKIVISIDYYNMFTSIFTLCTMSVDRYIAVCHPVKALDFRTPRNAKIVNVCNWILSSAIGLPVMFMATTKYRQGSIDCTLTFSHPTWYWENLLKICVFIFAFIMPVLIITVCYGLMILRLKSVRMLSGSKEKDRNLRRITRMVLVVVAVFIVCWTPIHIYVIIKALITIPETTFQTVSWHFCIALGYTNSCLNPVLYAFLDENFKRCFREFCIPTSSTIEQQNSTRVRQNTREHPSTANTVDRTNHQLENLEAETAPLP
# UniProt P31424, 21-1203 limits assumed: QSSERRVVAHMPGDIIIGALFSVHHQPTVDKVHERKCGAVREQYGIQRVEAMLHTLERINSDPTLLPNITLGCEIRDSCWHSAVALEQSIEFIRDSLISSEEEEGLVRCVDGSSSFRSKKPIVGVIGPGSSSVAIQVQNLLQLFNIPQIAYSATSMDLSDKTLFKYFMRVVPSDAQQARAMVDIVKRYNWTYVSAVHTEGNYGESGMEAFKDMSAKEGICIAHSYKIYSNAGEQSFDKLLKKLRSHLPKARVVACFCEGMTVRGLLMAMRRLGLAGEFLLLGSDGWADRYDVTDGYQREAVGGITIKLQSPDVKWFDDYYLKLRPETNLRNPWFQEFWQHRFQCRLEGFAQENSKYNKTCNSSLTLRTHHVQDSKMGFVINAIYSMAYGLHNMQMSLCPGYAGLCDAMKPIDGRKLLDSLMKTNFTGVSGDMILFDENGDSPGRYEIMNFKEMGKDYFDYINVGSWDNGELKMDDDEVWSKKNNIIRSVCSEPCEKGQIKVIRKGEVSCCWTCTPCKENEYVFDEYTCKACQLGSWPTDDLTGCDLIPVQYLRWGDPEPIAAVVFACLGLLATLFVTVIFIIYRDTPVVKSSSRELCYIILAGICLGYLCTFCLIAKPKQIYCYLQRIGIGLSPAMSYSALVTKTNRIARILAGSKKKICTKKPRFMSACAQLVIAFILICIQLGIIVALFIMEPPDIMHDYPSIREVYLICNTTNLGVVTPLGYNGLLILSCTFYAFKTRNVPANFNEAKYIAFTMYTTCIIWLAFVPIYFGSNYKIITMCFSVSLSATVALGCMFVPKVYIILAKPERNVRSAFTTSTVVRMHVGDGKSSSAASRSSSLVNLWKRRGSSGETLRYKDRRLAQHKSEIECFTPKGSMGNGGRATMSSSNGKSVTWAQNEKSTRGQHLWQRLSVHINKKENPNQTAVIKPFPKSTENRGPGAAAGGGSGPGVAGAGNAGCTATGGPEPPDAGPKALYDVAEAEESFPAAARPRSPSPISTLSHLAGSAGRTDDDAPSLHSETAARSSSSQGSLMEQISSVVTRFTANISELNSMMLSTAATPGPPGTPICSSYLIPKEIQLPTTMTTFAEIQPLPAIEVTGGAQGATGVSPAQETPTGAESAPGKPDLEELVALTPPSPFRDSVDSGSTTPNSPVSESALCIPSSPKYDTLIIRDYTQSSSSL
# ± marks the error that the study gave.
SMILES,tested on,assay,system,conditions,endpoint,result
C=CCN1CC[C@]23c4c5ccc(O)c4O[C@H]2[C@H](NC(=O)c2cccc(I)c2)CC[C@@]3(O)[C@H]1C5,"Oprd1 (Mus musculus, UniProt P32300)",,,,Ki,0.0026 ± 0.00018 µM
c1ccc2c[n+](CCCCCCCC[n+]3ccc4ccccc4c3)ccc2c1,,,"rat, plasma","intramuscular, 5% of LD50",half-life,50.5 ± 8.8 min
O=C(Oc1c(Br)cc(Br)cc1CNC(=O)c1ccccc1[N+](=O)[O-])c1ccccc1Cl,"lasR (Pseudomonas aeruginosa, UniProt P25084)",agonist,,,EC50,0.071 µM
N[C@@H](Cc1ccc(O)cc1)C(=O)N1Cc2ccccc2C[C@H]1CN[C@@H](CC1CCCCC1)C(=O)N[C@@H](Cc1ccccc1)C(=O)O,"Oprd1 (Rattus norvegicus, UniProt P33533)",,,,Ki,0.000259 ± 4.7e-05 µM
COc1ccc(CNC(=O)c2ccccc2CNCc2ccc3c(c2C(=O)O)OCO3)cc1,HIV-1 integrase core domain Y131D,"binding, surface plasmon resonance",,,Kd,> 2000 µM
COC(=O)C1=C(c2ccc(F)cc2)CC2CCC1S2 (racemic),"SLC6A4 (Homo sapiens, UniProt P31645)",inhibitor,,,IC50,> 10 µM
COc1ccc(CC[C@H]2OC(=O)[C@@H]3CCCCN3C(=O)C(=O)C(C)(C)COC(=O)C=CCCN(C)C(=O)[C@H](CC(C)C)N(C)C(=O)[C@H]3CCCN3C(=O)[C@H](Cc3ccccc3)N(C)C(=O)C(c3ccccc3)NC(=O)CCC(=O)Nc3cccc2c3)cc1OC (stereo partly drawn),"FKBP1A/SLC29A1 (Homo sapiens, UniProt P62942+Q99808)","adenosine uptake, inhibitor",,,IC50,0.005 µM
CC(=O)N1CCC[C@@H]1C(=O)N[C@@H](C)C(=O)N[C@@H](Cc1ccccc1)B(O)O,"Proteasome subunit beta type-2, β2 subunit (Plasmodium falciparum, UniProt Q8I261+Q8I6T3)","β2 activity, inhibitor",,together with: Ac-WLR-AMC substrate,IC50,> 10 µM
CC[C@H](C)[C@H](N)C(=O)N[C@@H](CC(N)=O)C(=O)N[C@H]1CSC(=O)[C@H](CC(C)C)NC(=O)[C@H](CC(C)C)NC(=O)[C@H](Cc2ccccc2)NC(=O)[C@H](CC(=O)O)NC1=O,"Accessory gene regulator protein C (Staphylococcus aureus, UniProt O33590)","agonist, β-lactamase reporter",,,EC50,0.406 µM
Ic1ccc(CSCn2ccnc2)cc1,"OPRM1 (Homo sapiens, UniProt P35372)",,,,Ki,> 10 µM
CC(C)(C)c1cc[n+](CCCCCCCC[n+]2ccc(C(C)(C)C)cc2)cc1,,,mouse,"intramuscular, 24 h",LD50,33.4 mg/kg
C[C@H](N)C(=O)N[C@@H](CO)C(=O)N[C@@H](C)C(=O)N[C@H]1CSC(=O)[C@H](Cc2ccccc2)NC(=O)[C@H](Cc2ccc(O)cc2)NC(=O)[C@H](C)NC(=O)[C@H](C)NC1=O,"Accessory gene regulator protein C (Staphylococcus epidermidis, UniProt Q8VSX5)","antagonist, reporter strain",,,IC50,0.00036 µM
CC(=O)N[C@H]1[C@H](Oc2ccccc2-c2cccc(C(=O)O)c2)O[C@H](CO)[C@H](O)[C@@H]1O,"ydeQ (Escherichia coli, UniProt A0A0H2V7F6)",ELISA,,,IC50,0.64 µM
O=C(N[C@@H]1CC[C@@]2(O)[C@H]3Cc4ccc(O)c5c4[C@@]2(CCN3CC2CC2)[C@H]1O5)c1ccnc(Cl)c1,"Oprm1 (Mus musculus, UniProt P42866)",radioligand binding,CHO,together with: [3H]naloxone,Ki,0.0001 ± 4e-05 µM
NCCNCCSc1ccccc1,,,plasma,"1 µg/mL, 30 days, -20 °C",long-term stability,92.1 ± 3.16 % remaining
Cc1cc(O)cc(C)c1C[C@@H]1NC[C@H](CCCCN)NC(=O)[C@H](Cc2ccccc2)NC(=O)[C@@H](CCCNC(=N)N)NC1=O,"Oprm1 (Rattus norvegicus, UniProt P33535)",,,,Ki,0.00902 ± 0.00151 µM
N[C@@H](Cc1ccc(C(=O)NCCc2ccc(-c3ccccc3)cc2)cc1)C(=O)N1Cc2ccccc2C[C@H]1C(=O)O,"Oprd1 (Rattus norvegicus, UniProt P33533)",radioligand binding,rat brain membranes,together with: [3H]DSLET,Ki,0.000646 ± 8.8e-05 µM
Cc1ccc2ccc(-c3cccc(C#N)c3)cc2n1,"Grm5 (Rattus norvegicus, UniProt P31424)","calcium flux, antagonist",,,IC50,0.029 ± 0.005 µM

# Some of these lines once more:
SMILES,tested on,assay,system,conditions,endpoint,result
C[C@H](N)C(=O)N[C@@H](CO)C(=O)N[C@@H](C)C(=O)N[C@H]1CSC(=O)[C@H](Cc2ccccc2)NC(=O)[C@H](Cc2ccc(O)cc2)NC(=O)[C@H](C)NC(=O)[C@H](C)NC1=O,"Accessory gene regulator protein C (Staphylococcus epidermidis, UniProt Q8VSX5)","antagonist, reporter strain",,,IC50,0.00036 µM
Cc1ccc2ccc(-c3cccc(C#N)c3)cc2n1,"Grm5 (Rattus norvegicus, UniProt P31424)","calcium flux, antagonist",,,IC50,0.029 ± 0.005 µM
